Assay results of several laboratories.
Technique: steady-state kinetics
B1: protein (Shewanella denitrificans, UniProt Q12KT8); chain MIHKLADVQSQNIGDNTKVWQFCVILAGAVIGRNCNICANSLIENDVVIGDNVTIKSGVQIWDGIHIQDDVFIGPNVTFTNDKQPRSKIYPDEYLKTIVKKGASIGANSTILPGILIGENAMVGAGAVITKNVPDNAIVIGNPGRITGYVEANTGVIMPSNNFELKLQMSKVKGVSLHKFHLVNDLRGNLSVGEFEKDIPFTPKRYFTVFGVPNKEVRGEHAHKECKQFLICVSGNCSVLVDDGENREEYVLDSIDKGIYLPPMTWGVQYKYSKDAVLLVFASHYYDSDDYIRDYSTFKQMRQN
B2: FMO1 I303V (Homo sapiens, UniProt Q01740); chain AKRVAIVGAGVSGLASIKCCLEEGLEPTCFERSDDLGGLWRFTEHVEEGRASLYKSVVSNSCKEMSCYSDFPFPEDYPNYVPNSQFLEYLKMYANHFDLLKHIQFKTKVCSVTKCSDSAVSGQWEVVTMHEEKQESAIFDAVMVCTGFLTNPYLPLDSFPGINAFKGQYFHSRQYKHPDIFKDKRVLVIGMGNSGTDIAVEASHLAEKVFLSTTGGGWVISRIFDSGYPWDMVFMTRFQNMLRNSLPTPIVTWLMERKINNWLNHANYGLIPEDRTQLKEFVLNDELPGRIITGKVFIRPSVKEVKENSVIFNNTSKEEPIDIIVFATGYTFAFPFLDESVVKVEDGQASLYKYIFPAHLQKPTLAIIGLIKPLGSMIPTGETQARWAVRVLKGVNKLPPPSVMIEEINARKENKPSWFGLCYCKALQSDYITYIDELLTYINAKPNLFSMLLTDPHLALTVFFGPCSPYQFRLTGPGKWEGARNAIMTQWDRTFKVIKARVVQESPSPFESFLKVFSFLALLVAIFLIFL
B3: oxdC T165V (Bacillus subtilis, UniProt O34714); chain MKKQNDIPQPIRGDKGATVKIPRNIERDRQNPDMLVPPETDHGTVSNMKFSFSDTHNRLEKGGYAREVTVRELPISENLASVNMRLKPGAIRELHWHKEAEWAYMIYGSARVTIVDEKGRSFIDDVGEGDLWYFPSGLPHSIQALEEGAEFLLVFDDGSFSENSVFQLTDWLAHTPKEVIAANFGVTKEEISNLPGKEKYIFENQLPGSLKDDIVEGPNGEVPYPFTYRLLEQEPIESEGGKVYIADSTNFKVSKTIASALVTVEPGAMRELHWHPNTHEWQYYISGKARMTVFASDGHARTFNYQAGDVGYVPFAMGHYVENIGDEPLVFLEIFKDDHYADVSLNQWLAMLPETFVQAHLDLGKDFTDVLSKEKHPVVKKKCSK
B4: protein Y93N (Thermus thermophilus, UniProt Q5SKR5); chain MSAPKPFVIGIAGGTASGKTTLAQALARTLGERVALLPMDHYYKDLGHLPLEERLRVNYDHPDAFDLALYLEHAQALLRGLPVEMPVYDFRANTRSPRRTPVRPAPVVILEGILVLYPKELRDLMDLKVFVDADADERFIRRLKRDVLERGRSLEGVVAQYLEQVKPMHLHFVEPTKRYADVIVPRGGQNPVALEMLAAKALARLARMGAA
B5: VC1 (Vicia faba, UniProt A0AAV0YZD8); chain ALVSGGGKDLAVVDESKSGITNLVFHVDNNEFDLDSPAEGFASIPEAIEDIRQGKMVVVVDDEDRENEGDLIMAAQLATPEAMAFIVKHGSGIVCVSMKEEDLDRLELPLMVDSKANAQKHCTAFTVSVDAKHGTTTGVSAHDRAATVLALASRGSTPADFNRPGHIFPVKYTEGGVLKRAGHTEASVDLTVLAGLDPVSVQCEIVDEDGSMARLPKLRQFAKRENLKIVSIADLIRYRRKRDILIERSSAARLPTQWGKFTSYCYKSLLDGIEHIAMVKGDLGDGEDVLVRVHSECLTGDIFGSARCDCGNQLALSMQQIEATGRGVLIYLRGHEGRGIGLGPKLRAYNLQDDGRDTVEANEELGLPVDSREYGIGAQMLRDLGVQSMKLMTNNPTKYIGLKGYGLTITGRIPLLTLITSENQRYLETKRVKMGHVYGTEHNNGVKITV
B6: FNO G29L (Thermobifida fusca, UniProt Q47RA9); chain MIMIMASKSSPHDLPDVSGLSIAVLGGTLDQGRGLARRFAMAGHEVILGSRSAERAQAVAAELGEGLPVRGMDNAGAAEAGDVVIVAVPWDGHRALLESLKDVLAGKIVVDCVNPLGFDKRGAYALPVEEGSAAEQAAAILPDSRVVAAFHHVSAVLLLDPEVEKVDLDVLVLGDDREATDVVRALAARIPGVRGVYGGRLRNAHQVEAFTANLISINRRYKAHAGIRITDI
B7: enzyme (Aquifex aeolicus, UniProt O67060); chain MIKVLSPAKINLGLWVLGRLPSGYHEILTLYQEIPFYDEIYIREGVLRVETNIGIPQEENLVYKGLREFERITGIEINYSIFIQKNIPPGAGLGGGSSNLAVVLKKVNELLGSPLSEEELRELVGSISADAPFFLLGKSAIGRGKGEVLEPVETEISGKITLVIPQVSSSTGRVYSSLREEHFVTPEYAEEKIQRIISGEVEEIENVLGDIARELYPEINEVYRFVEYLGFKPFVSGSGSTVYFFGGASEELKKAAKMRGWKVVELEL
UniProt P03958, sequence (whole entry, looked up): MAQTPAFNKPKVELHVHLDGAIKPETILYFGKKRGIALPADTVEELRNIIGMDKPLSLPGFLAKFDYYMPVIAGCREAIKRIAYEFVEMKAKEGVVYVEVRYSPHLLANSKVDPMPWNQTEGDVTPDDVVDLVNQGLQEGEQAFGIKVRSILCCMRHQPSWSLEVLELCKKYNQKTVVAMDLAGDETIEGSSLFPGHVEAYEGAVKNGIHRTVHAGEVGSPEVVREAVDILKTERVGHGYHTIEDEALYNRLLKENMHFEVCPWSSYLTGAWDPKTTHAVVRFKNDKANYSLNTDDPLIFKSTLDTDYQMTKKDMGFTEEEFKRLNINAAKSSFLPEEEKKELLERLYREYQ
UniProt Q03131, sequence (whole entry, looked up): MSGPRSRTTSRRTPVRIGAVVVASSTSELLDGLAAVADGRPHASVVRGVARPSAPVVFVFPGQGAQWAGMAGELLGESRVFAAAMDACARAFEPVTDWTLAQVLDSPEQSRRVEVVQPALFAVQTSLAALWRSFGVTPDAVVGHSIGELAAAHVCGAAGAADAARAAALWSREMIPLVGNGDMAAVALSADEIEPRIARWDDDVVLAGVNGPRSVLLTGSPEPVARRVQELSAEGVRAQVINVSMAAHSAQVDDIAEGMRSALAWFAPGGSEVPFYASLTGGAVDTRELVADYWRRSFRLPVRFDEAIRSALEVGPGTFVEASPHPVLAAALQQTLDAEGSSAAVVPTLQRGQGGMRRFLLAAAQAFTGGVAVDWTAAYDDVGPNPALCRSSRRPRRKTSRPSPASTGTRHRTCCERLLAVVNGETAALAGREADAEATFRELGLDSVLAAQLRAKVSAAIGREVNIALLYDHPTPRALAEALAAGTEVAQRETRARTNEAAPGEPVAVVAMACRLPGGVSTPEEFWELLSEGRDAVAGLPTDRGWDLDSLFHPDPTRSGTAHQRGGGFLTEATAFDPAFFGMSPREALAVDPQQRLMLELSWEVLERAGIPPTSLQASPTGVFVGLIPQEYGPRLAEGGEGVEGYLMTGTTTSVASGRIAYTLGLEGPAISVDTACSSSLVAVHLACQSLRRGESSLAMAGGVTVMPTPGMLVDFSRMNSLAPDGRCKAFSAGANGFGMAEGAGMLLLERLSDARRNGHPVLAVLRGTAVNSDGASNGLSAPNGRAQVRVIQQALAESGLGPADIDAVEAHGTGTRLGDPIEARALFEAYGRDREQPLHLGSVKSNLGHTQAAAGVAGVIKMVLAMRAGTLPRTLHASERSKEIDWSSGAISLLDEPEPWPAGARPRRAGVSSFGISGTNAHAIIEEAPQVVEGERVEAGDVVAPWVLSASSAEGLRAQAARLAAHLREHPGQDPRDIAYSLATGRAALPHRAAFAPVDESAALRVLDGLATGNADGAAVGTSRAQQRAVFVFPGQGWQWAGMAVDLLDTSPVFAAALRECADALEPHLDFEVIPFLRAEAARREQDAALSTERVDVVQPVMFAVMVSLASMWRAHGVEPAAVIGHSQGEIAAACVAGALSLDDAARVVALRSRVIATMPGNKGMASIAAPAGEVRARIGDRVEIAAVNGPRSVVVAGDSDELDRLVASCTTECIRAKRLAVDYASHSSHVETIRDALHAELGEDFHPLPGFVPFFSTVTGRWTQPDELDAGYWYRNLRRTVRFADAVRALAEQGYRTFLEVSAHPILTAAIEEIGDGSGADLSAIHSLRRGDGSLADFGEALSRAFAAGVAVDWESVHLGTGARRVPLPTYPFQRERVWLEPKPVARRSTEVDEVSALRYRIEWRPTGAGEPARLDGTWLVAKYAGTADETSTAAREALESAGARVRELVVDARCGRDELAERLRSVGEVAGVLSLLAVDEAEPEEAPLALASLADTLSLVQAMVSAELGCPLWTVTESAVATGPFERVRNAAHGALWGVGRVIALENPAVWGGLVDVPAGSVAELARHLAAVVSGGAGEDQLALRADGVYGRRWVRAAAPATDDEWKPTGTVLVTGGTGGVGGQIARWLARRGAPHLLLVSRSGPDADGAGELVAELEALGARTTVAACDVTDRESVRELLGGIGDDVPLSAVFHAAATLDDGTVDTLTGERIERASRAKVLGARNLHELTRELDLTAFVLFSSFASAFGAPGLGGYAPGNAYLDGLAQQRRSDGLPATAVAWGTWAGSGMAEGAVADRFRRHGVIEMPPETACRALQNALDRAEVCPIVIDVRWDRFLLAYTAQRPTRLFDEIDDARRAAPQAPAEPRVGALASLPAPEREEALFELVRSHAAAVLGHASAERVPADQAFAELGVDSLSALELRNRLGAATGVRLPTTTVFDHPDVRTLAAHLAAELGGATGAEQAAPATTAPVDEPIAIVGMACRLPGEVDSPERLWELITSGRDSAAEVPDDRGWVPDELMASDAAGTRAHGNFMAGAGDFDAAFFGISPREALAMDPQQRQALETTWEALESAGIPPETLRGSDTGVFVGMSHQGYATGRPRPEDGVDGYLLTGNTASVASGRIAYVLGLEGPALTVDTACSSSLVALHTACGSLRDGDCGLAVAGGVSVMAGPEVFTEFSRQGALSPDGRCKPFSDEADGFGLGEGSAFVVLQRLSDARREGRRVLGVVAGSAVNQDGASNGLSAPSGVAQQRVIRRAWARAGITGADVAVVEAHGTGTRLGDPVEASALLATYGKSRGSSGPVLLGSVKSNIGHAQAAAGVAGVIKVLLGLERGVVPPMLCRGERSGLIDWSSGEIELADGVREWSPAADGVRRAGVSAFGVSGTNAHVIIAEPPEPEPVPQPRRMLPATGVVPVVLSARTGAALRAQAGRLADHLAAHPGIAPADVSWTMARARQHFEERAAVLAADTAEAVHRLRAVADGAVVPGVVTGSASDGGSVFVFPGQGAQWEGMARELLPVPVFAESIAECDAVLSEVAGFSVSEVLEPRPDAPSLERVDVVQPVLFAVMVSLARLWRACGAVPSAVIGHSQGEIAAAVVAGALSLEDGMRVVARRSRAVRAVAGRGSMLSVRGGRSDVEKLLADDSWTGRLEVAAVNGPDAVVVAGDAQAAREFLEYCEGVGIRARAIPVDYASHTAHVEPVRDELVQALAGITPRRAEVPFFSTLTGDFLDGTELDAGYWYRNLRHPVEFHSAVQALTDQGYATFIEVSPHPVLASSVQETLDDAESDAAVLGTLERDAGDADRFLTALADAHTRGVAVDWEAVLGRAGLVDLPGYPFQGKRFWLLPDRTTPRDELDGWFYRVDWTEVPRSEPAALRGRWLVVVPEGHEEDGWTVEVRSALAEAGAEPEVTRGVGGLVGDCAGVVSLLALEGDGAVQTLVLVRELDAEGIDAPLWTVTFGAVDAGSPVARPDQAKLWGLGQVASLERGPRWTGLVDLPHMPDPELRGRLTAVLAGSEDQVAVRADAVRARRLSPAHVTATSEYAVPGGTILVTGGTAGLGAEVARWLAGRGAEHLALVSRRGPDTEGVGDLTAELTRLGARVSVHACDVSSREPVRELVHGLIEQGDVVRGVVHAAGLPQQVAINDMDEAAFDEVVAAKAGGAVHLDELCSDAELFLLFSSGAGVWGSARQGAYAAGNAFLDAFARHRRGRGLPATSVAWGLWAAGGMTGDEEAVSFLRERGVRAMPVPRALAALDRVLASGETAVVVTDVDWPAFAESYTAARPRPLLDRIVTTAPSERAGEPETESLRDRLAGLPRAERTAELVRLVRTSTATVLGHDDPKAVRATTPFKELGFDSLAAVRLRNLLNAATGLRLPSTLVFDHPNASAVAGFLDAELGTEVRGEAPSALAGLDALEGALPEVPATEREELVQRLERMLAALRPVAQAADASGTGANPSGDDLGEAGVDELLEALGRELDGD
UniProt Q9STE6, sequence (whole entry, looked up): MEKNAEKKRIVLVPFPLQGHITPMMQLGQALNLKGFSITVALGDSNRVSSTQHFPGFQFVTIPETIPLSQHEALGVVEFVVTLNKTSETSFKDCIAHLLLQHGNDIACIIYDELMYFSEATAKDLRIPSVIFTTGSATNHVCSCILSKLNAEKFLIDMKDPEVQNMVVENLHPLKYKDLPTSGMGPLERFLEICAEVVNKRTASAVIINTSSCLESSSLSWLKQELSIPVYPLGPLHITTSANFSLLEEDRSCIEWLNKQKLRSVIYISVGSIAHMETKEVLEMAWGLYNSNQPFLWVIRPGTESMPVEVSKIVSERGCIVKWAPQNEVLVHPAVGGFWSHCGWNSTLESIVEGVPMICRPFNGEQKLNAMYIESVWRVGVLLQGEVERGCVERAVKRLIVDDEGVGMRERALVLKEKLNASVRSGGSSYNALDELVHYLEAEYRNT
UniProt P07379, sequence (whole entry, looked up): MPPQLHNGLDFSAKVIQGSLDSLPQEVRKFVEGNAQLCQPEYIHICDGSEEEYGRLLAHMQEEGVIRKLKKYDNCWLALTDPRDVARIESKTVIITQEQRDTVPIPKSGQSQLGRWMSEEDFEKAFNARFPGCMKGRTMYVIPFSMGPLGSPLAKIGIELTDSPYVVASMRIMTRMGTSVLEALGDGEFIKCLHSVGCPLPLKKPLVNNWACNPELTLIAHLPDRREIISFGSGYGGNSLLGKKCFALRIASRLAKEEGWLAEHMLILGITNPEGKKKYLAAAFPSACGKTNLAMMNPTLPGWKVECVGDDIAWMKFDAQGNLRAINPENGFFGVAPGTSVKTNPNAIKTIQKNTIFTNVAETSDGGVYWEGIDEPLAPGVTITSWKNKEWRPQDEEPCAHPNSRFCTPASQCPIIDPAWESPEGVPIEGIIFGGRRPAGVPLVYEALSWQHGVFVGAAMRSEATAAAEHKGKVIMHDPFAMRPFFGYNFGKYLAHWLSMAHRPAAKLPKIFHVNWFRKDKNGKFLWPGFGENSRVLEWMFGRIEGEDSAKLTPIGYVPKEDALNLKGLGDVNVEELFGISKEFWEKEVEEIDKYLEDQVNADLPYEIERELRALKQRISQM

B1 (protein)
Km (Cc1cn([C@H]2C[C@H](O)[C@@H](COP(=O)(O)OP(=O)(O)O[C@H]3O[C@H](C)[C@H](O)[C@H](N)[C@H]3O)O2)c(=O)[nH]c1=O; pH 8.5, with: acetyl-CoA 2 mM): 45 µM

B2 (FMO1 I303V)
Km (CN1CCC[C@H]1c1cccnc1; HEK293 microsomes; 37 °C, not purified, with: NADPH regenerating system): 1800 µM

eryAI (Saccharopolyspora erythraea, UniProt Q03131)
Km (CC[C@@H](O)[C@H](C)C(=O)SCCNC(=O)CCNC(=O)[C@H](O)C(C)(C)COP(=O)(O)OP(=O)(O)OC[C@H]1O[C@@H](n2cnc3c(N)ncnc32)[C@H](O)[C@@H]1OP(=O)(O)O; pH 7.2): 200 µM

protein (UniProt M4ZR24)
Km (Cc1cn([C@H]2C[C@H](O)[C@@H](CN)O2)c(=O)[nH]c1=O; phosphorolysis, single substrate, with: phosphate): 130 µM

B3 (oxdC T165V)
Km (O=C(O)C(=O)O; pH 4.2, 25 °C): 30000 µM

B4 (protein Y93N)
Km (Nc1ccn([C@@H]2O[C@H](CO)[C@@H](O)[C@H]2O)c(=O)n1; pH 7.2, 25 °C, KCl 100 mM, with: ATP 100–200 µM): 470 µM

Ada (Mus musculus, UniProt P03958)
Km (Nc1ncnc2c1ncn2[C@@H]1O[C@H](CO)C[C@H]1O; mouse erythrocytes; pH 5.8, 37 °C): 350 µM

B5 (VC1)
Km (Nc1nc2c(ncn2[C@@H]2O[C@H](COP(=O)(O)OP(=O)(O)OP(=O)(O)O)[C@@H](O)[C@H]2O)c(=O)[nH]1; pH 8, NaCl 100 mM, with: GTP 0-244 µM): 66 µM

B6 (FNO G29L)
Km (CCC[n+]1cccc(C(N)=O)c1; pH 8, 25 °C, with: F420H2 40 µM): 18000 µM

B7 (enzyme)
Km (C[C@](O)(CO)[C@H](O)COP(=O)(O)OP(=O)(O)OC[C@H]1O[C@@H](n2ccc(N)nc2=O)[C@H](O)[C@@H]1O; pH 8.5, 37 °C): 121 µM

Pck1 (Rattus norvegicus, UniProt P07379)
Km (Nc1nc2c(ncn2[C@@H]2O[C@H](COP(=O)(O)OP(=O)(O)OP(=O)(O)O)[C@@H](O)[C@H]2O)c(=O)[nH]1; pH 7.5, 25 °C, with: OAA, GTP): 68 µM

enzyme (Arabidopsis thaliana, UniProt Q9STE6)
Km (CC(=O)N[C@H]1[C@@H](OP(=O)(O)OP(=O)(O)OC[C@H]2O[C@@H](n3ccc(=O)[nH]c3=O)[C@H](O)[C@@H]2O)O[C@H](CO)[C@@H](O)[C@@H]1O; pH 7.5, 25 °C): 0.78 µM

A few entries again:
protein (UniProt M4ZR24)
Km (Cc1cn([C@H]2C[C@H](O)[C@@H](CN)O2)c(=O)[nH]c1=O; phosphorolysis, single substrate, with: phosphate): 130 µM
